Published values from different studies.
Each line is one published result; not all experiments were run side by side. ± gives the spread as reported.
CYP3A4: Cytochrome P450 3A4 (CYP3A4, Homo sapiens, UniProt P08684)
Sequence of UniProt P08684 (whole entry, looked up): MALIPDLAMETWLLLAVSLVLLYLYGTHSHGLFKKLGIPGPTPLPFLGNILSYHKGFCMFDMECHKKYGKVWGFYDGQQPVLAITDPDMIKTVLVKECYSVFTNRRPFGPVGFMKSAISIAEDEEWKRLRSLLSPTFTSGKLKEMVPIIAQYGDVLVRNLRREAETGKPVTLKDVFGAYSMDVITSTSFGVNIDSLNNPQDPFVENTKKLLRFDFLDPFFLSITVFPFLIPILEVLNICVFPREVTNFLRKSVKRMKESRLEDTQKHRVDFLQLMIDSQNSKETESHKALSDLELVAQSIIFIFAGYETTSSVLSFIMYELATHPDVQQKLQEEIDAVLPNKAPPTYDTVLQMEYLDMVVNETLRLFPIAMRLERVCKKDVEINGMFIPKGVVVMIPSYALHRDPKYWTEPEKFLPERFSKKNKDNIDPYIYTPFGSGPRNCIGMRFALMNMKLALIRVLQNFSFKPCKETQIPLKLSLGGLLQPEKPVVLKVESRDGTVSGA
CYP2E1: Cytochrome P450 2E1 (CYP2E1, Homo sapiens, UniProt P05181)
Sequence of UniProt P05181 (whole entry, looked up): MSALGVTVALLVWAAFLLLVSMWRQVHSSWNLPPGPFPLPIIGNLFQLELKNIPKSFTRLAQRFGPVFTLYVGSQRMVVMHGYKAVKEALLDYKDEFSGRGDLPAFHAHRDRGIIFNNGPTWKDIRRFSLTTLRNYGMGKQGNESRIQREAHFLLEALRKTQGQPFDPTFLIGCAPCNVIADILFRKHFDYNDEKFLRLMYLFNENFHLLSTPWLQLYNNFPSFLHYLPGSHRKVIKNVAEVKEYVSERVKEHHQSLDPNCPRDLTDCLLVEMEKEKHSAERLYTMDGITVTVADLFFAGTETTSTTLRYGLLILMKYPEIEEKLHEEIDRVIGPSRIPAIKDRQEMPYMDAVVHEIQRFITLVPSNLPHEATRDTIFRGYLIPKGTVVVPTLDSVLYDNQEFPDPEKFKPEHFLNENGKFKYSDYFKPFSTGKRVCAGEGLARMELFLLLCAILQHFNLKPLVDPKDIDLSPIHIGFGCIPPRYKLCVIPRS
Sequence of UniProt P06873 (whole entry, looked up): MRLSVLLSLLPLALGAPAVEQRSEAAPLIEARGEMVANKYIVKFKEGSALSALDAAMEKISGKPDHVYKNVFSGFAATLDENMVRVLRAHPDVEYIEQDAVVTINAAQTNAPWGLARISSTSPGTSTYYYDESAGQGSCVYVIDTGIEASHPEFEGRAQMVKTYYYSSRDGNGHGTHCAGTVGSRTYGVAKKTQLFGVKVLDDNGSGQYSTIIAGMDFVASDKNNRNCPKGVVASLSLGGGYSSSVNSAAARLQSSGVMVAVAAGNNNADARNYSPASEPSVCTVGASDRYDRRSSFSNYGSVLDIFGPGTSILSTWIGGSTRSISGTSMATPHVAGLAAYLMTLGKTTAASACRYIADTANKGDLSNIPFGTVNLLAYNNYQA
Sequence of UniProt P21447 (whole entry, looked up): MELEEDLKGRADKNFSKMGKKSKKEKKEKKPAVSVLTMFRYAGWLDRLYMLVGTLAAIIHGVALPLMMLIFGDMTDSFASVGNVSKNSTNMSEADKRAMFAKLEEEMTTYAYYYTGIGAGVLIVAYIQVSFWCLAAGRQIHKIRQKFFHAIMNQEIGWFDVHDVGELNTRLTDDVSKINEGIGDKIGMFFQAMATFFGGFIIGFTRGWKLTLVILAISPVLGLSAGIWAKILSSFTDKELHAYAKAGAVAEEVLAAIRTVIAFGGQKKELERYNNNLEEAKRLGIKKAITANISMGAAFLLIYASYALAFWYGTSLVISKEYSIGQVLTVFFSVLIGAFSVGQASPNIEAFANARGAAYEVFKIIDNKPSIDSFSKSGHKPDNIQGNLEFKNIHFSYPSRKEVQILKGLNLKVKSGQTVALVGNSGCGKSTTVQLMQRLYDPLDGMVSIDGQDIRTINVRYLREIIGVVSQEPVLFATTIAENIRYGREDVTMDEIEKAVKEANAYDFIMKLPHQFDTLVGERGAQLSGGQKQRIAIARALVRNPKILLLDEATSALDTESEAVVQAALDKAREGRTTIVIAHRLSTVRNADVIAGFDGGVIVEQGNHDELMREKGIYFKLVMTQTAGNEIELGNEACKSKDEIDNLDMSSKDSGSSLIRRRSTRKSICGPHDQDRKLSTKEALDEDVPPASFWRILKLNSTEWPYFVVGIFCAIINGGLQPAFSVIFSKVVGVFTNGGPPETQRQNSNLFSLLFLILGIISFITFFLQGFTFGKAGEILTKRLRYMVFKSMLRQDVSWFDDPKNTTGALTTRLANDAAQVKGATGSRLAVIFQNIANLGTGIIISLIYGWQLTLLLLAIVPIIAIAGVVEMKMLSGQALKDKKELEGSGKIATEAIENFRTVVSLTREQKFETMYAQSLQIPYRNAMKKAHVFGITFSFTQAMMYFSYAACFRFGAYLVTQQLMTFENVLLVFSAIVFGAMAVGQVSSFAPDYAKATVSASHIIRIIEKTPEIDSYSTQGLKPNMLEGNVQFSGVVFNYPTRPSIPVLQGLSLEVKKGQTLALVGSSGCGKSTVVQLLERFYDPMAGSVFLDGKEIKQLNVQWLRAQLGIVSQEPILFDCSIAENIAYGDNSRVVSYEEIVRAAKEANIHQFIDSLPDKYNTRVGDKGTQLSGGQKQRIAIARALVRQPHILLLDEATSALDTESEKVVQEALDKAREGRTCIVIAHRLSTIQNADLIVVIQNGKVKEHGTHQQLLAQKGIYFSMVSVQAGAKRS
Sequence of UniProt P16257 (whole entry, looked up): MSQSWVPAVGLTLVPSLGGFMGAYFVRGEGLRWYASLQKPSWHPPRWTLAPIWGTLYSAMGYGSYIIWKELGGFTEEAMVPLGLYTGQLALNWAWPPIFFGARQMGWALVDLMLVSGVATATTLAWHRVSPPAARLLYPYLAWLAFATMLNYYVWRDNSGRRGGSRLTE
Sequence of UniProt P34913 (whole entry, looked up): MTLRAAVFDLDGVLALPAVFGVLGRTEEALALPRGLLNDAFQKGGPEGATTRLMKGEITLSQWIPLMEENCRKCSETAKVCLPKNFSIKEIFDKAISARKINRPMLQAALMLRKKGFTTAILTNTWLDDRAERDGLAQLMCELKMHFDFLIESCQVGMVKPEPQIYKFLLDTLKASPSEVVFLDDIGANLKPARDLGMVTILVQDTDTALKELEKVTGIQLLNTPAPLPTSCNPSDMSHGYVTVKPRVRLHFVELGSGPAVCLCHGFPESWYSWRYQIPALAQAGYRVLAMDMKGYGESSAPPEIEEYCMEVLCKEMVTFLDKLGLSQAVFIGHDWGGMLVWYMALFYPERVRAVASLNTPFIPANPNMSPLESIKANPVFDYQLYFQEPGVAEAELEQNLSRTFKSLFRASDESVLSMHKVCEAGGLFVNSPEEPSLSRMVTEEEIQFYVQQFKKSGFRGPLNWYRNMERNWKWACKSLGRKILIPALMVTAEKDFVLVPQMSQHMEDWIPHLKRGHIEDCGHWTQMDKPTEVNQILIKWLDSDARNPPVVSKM
Sequence of UniProt P43235 (whole entry, looked up): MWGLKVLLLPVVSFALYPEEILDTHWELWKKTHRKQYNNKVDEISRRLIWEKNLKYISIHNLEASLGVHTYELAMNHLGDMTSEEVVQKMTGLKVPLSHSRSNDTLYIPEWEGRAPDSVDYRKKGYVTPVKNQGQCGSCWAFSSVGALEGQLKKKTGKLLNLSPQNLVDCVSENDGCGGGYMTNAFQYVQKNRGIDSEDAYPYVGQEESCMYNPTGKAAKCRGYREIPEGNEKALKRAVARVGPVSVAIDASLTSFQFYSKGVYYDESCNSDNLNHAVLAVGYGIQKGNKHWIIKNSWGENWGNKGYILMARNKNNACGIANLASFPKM
Sequence of UniProt Q3UFF7 (whole entry, looked up): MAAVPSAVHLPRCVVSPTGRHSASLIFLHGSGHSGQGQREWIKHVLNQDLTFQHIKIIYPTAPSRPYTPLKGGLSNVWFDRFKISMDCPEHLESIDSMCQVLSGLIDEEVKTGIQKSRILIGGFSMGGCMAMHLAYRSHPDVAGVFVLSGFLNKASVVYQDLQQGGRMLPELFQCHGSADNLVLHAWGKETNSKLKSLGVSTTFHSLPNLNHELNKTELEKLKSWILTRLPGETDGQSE
Sequence of UniProt P05177 (whole entry, looked up): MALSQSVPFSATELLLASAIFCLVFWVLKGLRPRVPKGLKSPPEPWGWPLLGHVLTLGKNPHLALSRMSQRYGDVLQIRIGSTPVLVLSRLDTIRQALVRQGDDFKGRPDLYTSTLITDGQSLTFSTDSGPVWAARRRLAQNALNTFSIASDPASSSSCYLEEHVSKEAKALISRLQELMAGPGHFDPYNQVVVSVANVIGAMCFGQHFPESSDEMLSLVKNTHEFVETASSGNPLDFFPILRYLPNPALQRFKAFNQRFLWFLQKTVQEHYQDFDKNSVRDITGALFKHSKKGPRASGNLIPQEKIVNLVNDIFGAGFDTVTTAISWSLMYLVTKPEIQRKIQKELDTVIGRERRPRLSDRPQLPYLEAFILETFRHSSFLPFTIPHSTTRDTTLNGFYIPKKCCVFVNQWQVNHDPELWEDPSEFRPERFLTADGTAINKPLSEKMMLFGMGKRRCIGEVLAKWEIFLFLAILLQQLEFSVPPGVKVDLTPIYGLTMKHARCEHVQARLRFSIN
Sequence of UniProt O94788 (whole entry, looked up): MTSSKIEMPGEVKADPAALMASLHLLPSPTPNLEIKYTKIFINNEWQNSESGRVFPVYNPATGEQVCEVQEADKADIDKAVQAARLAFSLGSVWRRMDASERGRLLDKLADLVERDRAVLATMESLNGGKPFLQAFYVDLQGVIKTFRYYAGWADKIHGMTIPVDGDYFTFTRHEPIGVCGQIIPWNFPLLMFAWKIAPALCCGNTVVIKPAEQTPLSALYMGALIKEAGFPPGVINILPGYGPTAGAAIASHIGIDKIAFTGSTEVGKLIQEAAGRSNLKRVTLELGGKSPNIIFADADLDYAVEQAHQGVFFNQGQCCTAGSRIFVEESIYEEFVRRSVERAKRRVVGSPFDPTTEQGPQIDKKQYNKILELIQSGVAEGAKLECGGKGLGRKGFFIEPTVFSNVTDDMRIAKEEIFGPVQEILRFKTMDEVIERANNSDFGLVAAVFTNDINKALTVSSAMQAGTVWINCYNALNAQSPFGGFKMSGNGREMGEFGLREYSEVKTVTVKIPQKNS

SMILES	target	test	system	conditions	how to read	measurement	value
Cc1nc2ccc(S(=O)(=O)n3nc(SCc4ccc(Cl)cc4)nc3N)cc2s1	Lysophospholipase-like protein 1 (Mus musculus, UniProt Q3UFF7)	gel-based ABPP	C57BL/6J mouse, male, kidney	intraperitoneal, 100 mg/kg, 25 min, added: LYPLAL1 alkyne probe 5 mg/kg	baseline: vehicle	activity-based probe labelling	1.8 fold
COc1cc(-c2nc3ccccc3s2)cc(CN(Cc2ccccn2)Cc2ccccn2)c1O	Zn2+	UV-vis pH titration	–	M2+ + L- = [ML]+ complex	–	log K	16.5
NCCCC[C@H](NC(=O)[C@H](Cc1ccc(O)cc1)NC(=O)[C@H](CCCCN)NC(=O)[C@H](Cc1c[nH]c2ccccc12)NC(=O)[C@H](Cc1ccccc1)NC(=O)[C@H](Cc1ccccc1)NC(=O)Cc1ccc(-c2ccccc2)cc1)C(=O)NCC(=O)N[C@@H](Cc1c[nH]cn1)C(=O)N1CCC[C@H]1C(=O)NCC(=O)NCC(=O)N1CCC[C@H]1C(=O)N[C@@H](CCC(N)=O)C(=O)N[C@@H](CC(=O)O)C(=O)N[C@@H](CC(=O)O)C(=O)N[C@@H](CC(=O)O)C(=O)N[C@@H](CC(=O)O)C(=O)N[C@@H](CC(=O)O)C(=O)N[C@@H](CC(=O)O)C(=O)O	Cathepsin K (CTSK, Homo sapiens, UniProt P43235)	Zetasizer	MES buffer	64 µM, pH 5.5, without enzyme, before cleavage	–	zeta potential	-22.3 mV
CC(C)C[C@H](NC(=O)CNC(=O)[C@H](CC(C)C)NC(=O)[C@@H]1CCCN1C(=O)CNC(=O)[C@H](Cc1ccccc1)NC(=O)OCC1c2ccccc2-c2ccccc21)C(=O)N[C@@H](CCCNC(=N)N)C(=O)N[C@@H](CO)C(=O)N[C@@H](CCCCN)C(=O)O	MMP-9	substrate, HPLC	–	500 µM, 72 h, pH 7.5, 37 °C, added: 10 U MMP-9	–	remaining substrate	10%
Cn1cnc(C(=O)N(Cc2ccc(F)c(OC3CCCC3)c2)C2CC3CN([11CH3])CC3C2)c1 (stereo not drawn)	Abcb1a (Mus musculus, UniProt P21447)	–	mouse	added: cyclosporin A 50 mg/kg iv	baseline: cyclosporin A over control	brain uptake ratio	11.7
COc1ccc2cc(NC(=O)c3cc(-c4ccncc4)nc4ccccc34)ccc2c1	CYP3A4	substrate, LC-MS, item: hydroxylated metabolite M2	baculosomes	–	–	Km	0.6 ± 0.1 µM
[64Cu+2].c1ccc(CNCc2ccc(CN3CCCN4CCNCCCN(CC4)CC3)cc2)nc1	CXCR4	–	NOD/SCID mouse, U87 and U87-stb-CXCR4 xenografts, lungs	iv, 240 min, ex vivo	–	tissue uptake	8.09 ± 1.59 %ID/g
C[C@]12CC[C@@H]3c4ccc(OCC(=O)N[C@@H](CCCCNC(=O)CN5CCN(CC(=O)[O-])CCN(CC(=O)[O-])CCN(CC(=O)[O-])CC5)C(=O)O)cc4CC[C@H]3[C@@H]1CCC2=O.[68Ga+3]	estrogen receptor	–	nude mice, MCF7 xenograft, uterus	dose not given, 2.5 h post-injection, added: estradiol blocking dose	–	radioactivity uptake	0.71 ± 0.15 %ID/g
COc1ccc(CC(O)C(=O)O)cc1O (stereo not drawn)	cytochrome P450 (rat)	substrate	NADPH-fortified rat liver microsomes	–	–	demethylation	not detected
[64Cu+2].c1cnc(CNCc2ccc(CN3CCCN4CCNCCCN(CC4)CC3)cc2)nc1	CXCR4	–	NOD/SCID mouse, U87 and U87-stb-CXCR4 xenografts, lungs	iv, 120 min, ex vivo	–	tissue uptake	7.12 ± 0.89 %ID/g
COc1cc(-c2nc3ccccc3s2)cc(CN(C)Cc2ccccn2)c1O	Zn2+	UV-vis pH titration	–	M2+ + L- = [ML]+ complex	–	log K	15.2
CCc1cc(C)nc2c(CC(=O)N(CC)CC)c(-c3ccc(OCC[18F])cc3)nn12	Tspo (Rattus norvegicus, UniProt P16257)	two-tissue compartment model	rat C6 glioma model, tumor	dose not given, 60 min dynamic PET	–	total distribution volume	7.89 ± 0.764 mL/cm3
CC(C)C[C@H](NC(=O)[C@H](CO)NC(=O)[C@H](CC(C)C)NC(=O)[C@@H]1CCCN1C(=O)OCC1c2ccccc2-c2ccccc21)C(=O)N[C@@H](CCCNC(=N)N)C(=O)N[C@@H](CO)C(=O)N[C@@H](CCCCN)C(=O)O	MMP-9	substrate, HPLC	–	500 µM, 72 h, pH 7.5, 37 °C, added: 10 U MMP-9	–	remaining substrate	< 10%
O=C(O)c1cc(Br)c(O)c(Br)c1	CYP2E1	p-nitrophenol hydroxylation, competitive inhibitor, Cheng-Prusoff from IC50	–	added: p-nitrophenol	–	Ki	100 nM
CC(C)C[C@H](NC(=O)[C@H](CO)NC(=O)[C@H](CC(C)C)NC(=O)[C@@H]1CCCN1C(=O)CNC(=O)[C@H](Cc1ccccc1)NC(=O)OCC1c2ccccc2-c2ccccc21)C(=O)N[C@@H](CCCNC(=N)N)C(=O)N[C@@H](CO)C(=O)N[C@@H](CCCCN)C(=O)O	MMP-9	substrate, HPLC	–	500 µM, 72 h, pH 7.5, 37 °C, added: 10 U MMP-9	–	remaining substrate	19%
O=C(O)[C@@H]1C[C@@H](O)CN1C(=O)[C@@H]1CCCN1	iron(III) ion	complex formation, from log β	aqueous 0.15 M NaCl	37 °C, MAH−2 complex species	–	−ΔG	5.73 kcal/mol
C=CC(=O)Nc1cc(Nc2nccc(-c3cn(C)c4ccccc34)n2)c(OCC(F)(F)F)nc1N(C)CCN(C)C	CYP3A4	enzyme activity, inhibitor	human, liver microsomes	10 µM, testosterone probe	–	activity vs control	91.3%
Cc1ccc(OCC(=O)N(Cc2cccs2)c2ccn[nH]2)cc1	Cytochrome P450 1A2 (CYP1A2, Homo sapiens, UniProt P05177)	enzyme activity, inhibitor, fluorescence	Sf9	10 µM	–	inhibition	59%
O=C(Nc1ccc(OC(F)(F)F)cc1)N1CCC(Cc2cccc(Oc3ccc(C(F)(F)F)cn3)c2)CC1	EPHX2 (Homo sapiens, UniProt P34913)	FRET displacement	–	–	–	dissociation half-life	0.197 h
C=CCc1cccc(CNc2nc3ccccc3n2CCC)c1O	ALDH1A2 (Homo sapiens, UniProt O94788)	enzyme activity	–	pH 7.5, 25 °C, added: propionaldehyde 100 µM, NAD+ 200 µM	–	EC50	740 ± 210 nM
O=C(O)C(O)Cc1ccc(O)c(O)c1 (stereo not drawn)	cytochrome P450, rat	substrate	rat liver microsomes	added: NADPH	–	oxidation	not detected
CCCC[C@H](NC(C)=O)C(=O)N[C@@H](CO)C(=O)N[C@H](C(=O)N1CCC[C@H]1C(=O)N[C@]1(C)CCCCCCC=CCCC[C@@](C)(C(=O)N[C@@H](Cc2ccccc2)C(=O)N[C@@H](CCCCN)C(=O)N[C@@H](CCCNC(=N)N)C(=O)N[C@@H](CC(C)C)C(=O)N[C@@H](CCC(N)=O)C(N)=O)NC(=O)[C@H](CCCNC(=N)N)NC(=O)[C@H](CCCC)NC(=O)[C@H](CC(C)C)NC(=O)[C@H](CCCNC(=N)N)NC(=O)[C@H](CCCNC(=N)N)NC(=O)[C@H](CCCNC(=N)N)NC1=O)[C@@H](C)O	Proteinase K (PROK, Engyodontium album, UniProt P06873)	substrate, LC-MS	–	25 µM, pH 7.4	–	half-life	6.5 h
CC(=O)N1CCC[C@H]1C(=O)N[C@@H](CC(C)C)C(=O)N[C@@H](CO)C(=O)N[C@@H](CC(C)C)C(=O)N[C@@H](CCCNC(=N)N)C(=O)N[C@@H](CO)C(=O)N[C@@H](CCCCN)C(=O)O	MMP-9	substrate, HPLC	–	500 µM, 72 h, pH 7.5, 37 °C, added: 10 U MMP-9	–	remaining substrate	< 10%
CNc1c(C)n(C)n(-c2ccccc2)c1=O	CYP2E1	4-aminoantipyrine formation, substrate, recombinant supersomes	–	50 µM, up to 2 h	–	N-demethylation	inactive
